Measurements of several laboratories.
Numbered parts are unrelated; each lists some results of a single study. Substitutions count along the parent as printed.

Series 1
Target: ABI1, truncated, D143A, DHFR fusion (Arabidopsis thaliana)
Technique: DHFR PCA, deep sequencing
Sample: yeast
Notes: methotrexate growth selection, single substitutions
With: (+)-ABA 4.8 µM
Baseline: wild-type fitted maximum
Direction: higher = stronger binding
Parent: PYL1, truncated, DHFR fusion (Arabidopsis thaliana); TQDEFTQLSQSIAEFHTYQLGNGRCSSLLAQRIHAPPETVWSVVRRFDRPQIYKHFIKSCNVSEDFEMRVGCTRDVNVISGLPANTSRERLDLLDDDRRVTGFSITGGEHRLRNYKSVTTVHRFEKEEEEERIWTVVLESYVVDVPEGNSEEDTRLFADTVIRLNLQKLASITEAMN
Substitution | relative binding score [%]
T119R | -7.06
L8Q | 31.6
C25A | 75.4
D96P | -3.02
F5I | 69.3
P37Y | -1.19
S63N | 66.7
V78F | 80.4
G71E | -8.88
T6F | 61.9
G107H | 18.7
N85C | 68.7
C25S | 19.5
N22I | 70.1
Q2M | 81.6
I133F | 68.4
Y53S | -5.09
V40T | -0.961
G108T | -0.826

Series 2
Target: Centromere-binding protein 1, full length, His-tagged (CBF1, Saccharomyces cerevisiae, UniProt P17106, residues 1-351)
Sequence of UniProt P17106 (whole entry, looked up): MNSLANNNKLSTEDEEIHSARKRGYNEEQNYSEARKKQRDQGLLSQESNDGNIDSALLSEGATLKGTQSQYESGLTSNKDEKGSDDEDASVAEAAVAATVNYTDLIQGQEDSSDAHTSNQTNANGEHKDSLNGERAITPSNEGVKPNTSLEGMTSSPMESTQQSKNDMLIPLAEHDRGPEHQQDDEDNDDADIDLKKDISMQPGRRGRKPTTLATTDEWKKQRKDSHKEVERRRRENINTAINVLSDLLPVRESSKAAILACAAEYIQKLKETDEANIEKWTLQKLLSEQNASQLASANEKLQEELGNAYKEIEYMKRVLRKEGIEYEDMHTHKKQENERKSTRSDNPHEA
Technique: competition protein-binding microarray
Molecule type: double-stranded DNA, one strand shown
Sample: in vitro
Tested at: 2 µM
Notes: whole 60-bp probe, lowest competitor level
With: Pho4 competitor, 0.05 µM
Direction: higher = stronger binding
All sequences stand within: … GTCTTGATTCGCTTGACGCTGCTG
Strand | fluorescence intensity
CTTCTGTAAATTTGTCACCGGACTTGACGCGCCCCG | 113 a.u.
ATATCCGGTATTTTGCCCGTGATGGTTGGTAACTTC | 123 a.u.
CGTCCTAGTGATTGGTCAGTGGGTGCCATGAGGAAG | 87.6 a.u.
AATGTTTCTTCCCAACAAATGCAAGAAGTCAGAAAG | 83.3 a.u.
GTCTTGTCTCATTGGAGGGTGGGTGTCCCCACTTCA | 84.1 a.u.
TTGTTCCGCGGAAAGCACGTGAGCCTAATCCACTCG | 2150 a.u.
AAAGCGGTAATTTGGGACGTGGGTGCAGATATCTAT | 62.3 a.u.
TCGCGAGAAACGTTACACGTTGTTTGGATGAAAACA | 98.8 a.u.
CTAACGAAGGTTTGCTCAGTGGGTGACAAGCCAAGT | 70.6 a.u.
TGCGCAACAACTTGGGATGTGGGTGTATGTCTAGAA | 66.4 a.u.
CCACTACAAAACTTCCACGTTAGAAAGGTTAAGTTA | 71.5 a.u.
AAATTACTAAGTTGTTTCGTGGGTGACGCCGTATGA | 77.7 a.u.
CTTCTGTAAATTTTTCACGTGTATTGACGCGCCCCG | 775 a.u.
CTTGTGTTGCTTGGAAGTGTGATGGATACCCATTGT | 95.7 a.u.
CTTCTGTAAATTTGCTGTGTGGGTGGACGCGCCCCG | 90.3 a.u.
TTTCAAAAATTTCTTAACGTGGGTATTCTTCTTCCT | 81.8 a.u.
CACAACAGAGTTCACCACGTGGTAACCTATTTCTAC | 1690 a.u.
GAGACCACATATTCACACGTGATGGATAGTCCCGTT | 2820 a.u.
CTTCTGTAAATTTGCGGTGTGGGTGGACGCGCCCCG | 73.8 a.u.
TGCGCAACAACTTGTACAGTGGGTGTATGTCTAGAA | 70.4 a.u.
CCCTCCCTTCTCTGCTCCGTGATGGCCATTTCAACC | 95.1 a.u.
CGTCCTAGTGATTGTCACAATACTTCCATGAGGAAG | 98 a.u.
GAATAGGGATATCTGCACATGGGGCCTCGAGCATGG | 91.2 a.u.

Series 3
Target: Sal-like protein 4, full length isoform B (SALL4, Homo sapiens, UniProt Q9UJQ4-2, residues 1-616)
Technique: universal PBM
Molecule type: double-stranded DNA, one strand shown
Sample: in vitro
Tested at: not given
Notes: 8-mer, flanks averaged, mean of replicates
Direction: higher = stronger binding
Residues (chain): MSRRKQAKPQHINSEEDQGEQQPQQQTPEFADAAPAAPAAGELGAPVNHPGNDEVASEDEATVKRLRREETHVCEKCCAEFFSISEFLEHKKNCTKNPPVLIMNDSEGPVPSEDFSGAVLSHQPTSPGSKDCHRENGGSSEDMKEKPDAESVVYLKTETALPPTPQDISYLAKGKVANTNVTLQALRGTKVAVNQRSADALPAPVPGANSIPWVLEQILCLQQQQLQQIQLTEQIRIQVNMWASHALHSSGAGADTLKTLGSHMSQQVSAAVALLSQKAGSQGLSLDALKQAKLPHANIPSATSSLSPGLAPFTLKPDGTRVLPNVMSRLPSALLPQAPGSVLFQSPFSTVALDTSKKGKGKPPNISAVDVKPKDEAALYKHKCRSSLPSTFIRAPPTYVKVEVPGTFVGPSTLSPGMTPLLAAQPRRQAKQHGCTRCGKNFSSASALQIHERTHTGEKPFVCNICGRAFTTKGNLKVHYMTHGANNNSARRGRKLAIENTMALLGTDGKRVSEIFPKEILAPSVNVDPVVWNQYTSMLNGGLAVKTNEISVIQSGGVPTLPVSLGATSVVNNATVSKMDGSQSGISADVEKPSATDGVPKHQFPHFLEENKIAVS
Strand | E-score
AGATCGTG | -0.0322
GGCCTTAA | 0.00358
CGAATCGC | -0.267
ACGGTACG | -0.086
AATTTGGC | 0.0588
GCAAAAAA | 0.205
TCGGAACA | -0.0276
AGGTAGGG | -0.0143
ACACCAGC | -0.245
ACTAACAC | 0.0919
GGGGGTGA | -0.0311
AACTTGTC | 0.0942
ATGATTCG | 0.0363
AAACCACT | 0.0748
CGTAGAAC | -0.146
CGAGCTAA | -0.166
CCAGTAAG | -0.0276
TGTGACAA | -0.0115
ACCAGAAG | 0.0457

Series 4
Target: RING finger protein unkempt homolog, zinc fingers 1-6, GST-SBP tag (UNK, Homo sapiens, UniProt Q9C0B0, residues 30-357)
Sequence of UniProt Q9C0B0 (30-357, looked up): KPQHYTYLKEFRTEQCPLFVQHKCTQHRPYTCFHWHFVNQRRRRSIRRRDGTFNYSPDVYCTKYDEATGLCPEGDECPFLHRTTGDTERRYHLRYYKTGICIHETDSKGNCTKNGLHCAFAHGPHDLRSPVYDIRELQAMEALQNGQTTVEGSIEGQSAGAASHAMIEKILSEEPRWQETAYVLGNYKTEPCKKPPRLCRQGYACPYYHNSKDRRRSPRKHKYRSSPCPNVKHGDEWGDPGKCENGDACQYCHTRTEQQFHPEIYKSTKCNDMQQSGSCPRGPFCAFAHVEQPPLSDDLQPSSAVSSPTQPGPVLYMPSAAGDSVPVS
Technique: RNA Bind-n-Seq
Molecule type: RNA
Sample: in vitro
Tested at: not given
Notes: RNA with constant flanks, human and mouse sites, ends assumed
Baseline: input RNA pool
Direction: higher = stronger binding
All sequences stand within: GGGAGUUCUACAGUCCGACGAUC … CAACAGAGGAUUGAGCAUCA
Strand | bound/input enrichment
GGCUGUGGAAUCAGUCCAGAAAUUCAUUGUGAUGGUGGCCACACAUUCAGACCUCCUUCUGUUAGCAACUACUGCAUCUGUGACAUUACAAAUGGCAAUCACAGUGUGGAUGAGAUGCCG | 0.26 ratio
ACCUUUGUGGACAAGGAUUUUGUACCAUAUCAAGAUAUAAGGAUAAAUCAUACAGUGAUUUUAGAUGAUCCAUUUGAUGACCCUCCUGAUUUAUUAAUUCCUGAUCGAUCACCCGAGCCU | 0.13 ratio
CUGAGAGCAGGAGAGGUUCCGAAACCUUUUCCAACACAUUACAAAGAUUUGUGGGAUAACAAACAUGUGAAAAUGCCUUGUUCGGAACAAAACUUGUACCCUGUGGAAGAUGAGAAUGGU | 0.137 ratio
CAAAUACUAGAGAAUCUUUCCACUUCGCCUCUGGCUGAGCCACCCCACUUUGUUGAACAUAUUAGAUCUACCUUGAUGUUUUUAAAAAAACACCCAUCUCCAGCUCACACACUGUUUUCU | 2.09 ratio
GGAGUGUUUGGUGGACCAUACCCUUUUGGCAUUGAUCCAAUUUGGAACAUUGCUACCAAUAAACUGACGUUCUUGAACUCCUUUAAGAUGAAGAUGUCUGUUAUCCUUGGUAUCAUCCAU | 0.133 ratio
AAUGGUACUCUCUAUGAACAGCACGUUGAUGAGUGGAAUAUCGGCCGGCUGAAGACCAUCCUGGACCUGGUGGAGAAGGAGAGCGGGAUCACCAUUGAGGGGGUGAACACCCCCUACCUU | 0.148 ratio
UUGCAUCCAGCAGCAGCUAUUUUGGGGAGCAGCUGUGGUCGUUAUAUAAACAGAGUUUCAGCCCAAAGCUUAGGCUUUUUAUCCAGCUUCAAGCAGAAAAUACGGGGAGAGUCGAGCAGU | 0.372 ratio
AGUCCAGACCCCCCCAGGUCCAAGCCCAGACCACGAUGCGCGCUCCAGGCUCCGGGCGGCUGGCUCUGCCGCUGCUGCUCCUCGCCGUGGUCGCCUUGGCUGAAGGCGACGCCAAGGGGC | 0.152 ratio
CUGUUUUGUGAAACAUGUCUACCCAGAAAAGUAGCAUUCUAUAAAUACUAUUAAACAACUUAGCUAUAUUAUUUUUAAGUAUUAAAUUAUAUGUCAAGCAGUUAAAGUGAAUUUCAGAGU | 5.06 ratio
GAAGUUCUGAUCAAGAUGGCAUCUCAGCCCUUCGGCCGAGGAGCAAUGAGGGAGUGCUUCCGGACGAAGAAGCUCUCCAACUUCUUGCAUGCCCAGCAGUGGAAGGGCGCCUCCAACUAC | 0.107 ratio
AAGUCUCAUUCGCCUUUGUCUUGUACUUCUGUGUUCAUUUUUUUUUUUUUUUUUGGCUAGAGUUUCCACUAUCCCAAUCAAAGAAUUACAGUACACAUCCCCAGAAUCCAUAAAUGUGUU | 0.23 ratio

Series 5
Target: RNA binding protein fox-1 homolog 2, RRM domain, GST-SBP tag (RBFOX2, Homo sapiens, UniProt O43251-10, residues 100-194)
Technique: RNA Bind-n-Seq
Molecule type: RNA
Sample: in vitro
Tested at: 365 nM
Notes: natural RNA segment, single round, ends assumed
Baseline: no-protein control
Direction: higher = stronger binding
All sequences stand within: GGGAGUUCUACAGUCCGACGAUC … UGGAAUUCUCGGGUGCCAA
Residues (chain): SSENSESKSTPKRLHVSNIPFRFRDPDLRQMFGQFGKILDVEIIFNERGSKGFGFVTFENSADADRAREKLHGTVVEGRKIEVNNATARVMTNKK
Strand | RBNS enrichment (R)
GACCAUUUACUUGAUACAAAUUGUACCUUUCUGUUUUUCUAGUCAGGUUGGUGGCCUGCAGGGACGCGUACUUUGCCACCCGACCAGAGGUUCCUCGAAGAUAUUCCCAA | 0.387
UAAUGAACAGUGCCAAAUACACUGUGCAUAUCUAUAAUUUUCCAUUUGAAUGUAUGUUAAUUACUCCCUUCUAUGUGAUGGUCCCAUGCUUAGAGUCAGUGAAGUUCUUG | 0.61
UUGUAGUCAGCAACCAUUUUACUUUGUGUGUUUUUUCACGACUGAACACCAGCUGCUAUCAAGCAAGCUUAUAUCAUGUAAAUUAUAUGAAUUAGGAGAUGUUUUGGUAA | 0.286
CCUGCCUGCCGUCCUUGCGUCCACCAUCCCUCUGCCAGGAUGCUGCUCUUGCACCAAGUGCCUUCUGCAUCCCUCAGUCCAUCCGCGUACCAGUAGCCUCCCGUCCUAAU | 1.46
AUCAGGCAGCCUCCUGAUGCCAGAACACCUCAGGCAGAGCCCUACUCAGCUGUACCUGUCUGCCUGGACUGUCCCCUGUCCCCGCAUCUCCCCUGGGACCAGCUGGAGGG | 0.579
AUUUUAGUAUAGUUUAAAGUUGAGCUGCCUUUUCUUAUGUAGCUAUUUAAAAUAUUUCUGAAGUUCAGUAAUUUGGAUGCCUUCAUUAGUAGAUGCUGUCCUAUAUACCU | 0.356
CUGACUUUGCCUAUAUAUCUUUCUGGGGUUUUGUUUGUGUUUAAUUUUUAUUUUGCAUACUGAGGGUAUUUGGGGUGGGGUUGUUUUUUGAGAUGUGUAAUUCUUUUAUG | 2
CAGUAAUGGCCUGUGUUGGUAACAAUAUUAUCUAGUUCAAUGCCAUGCAGUAGCAUUGUAUAGCAACUAGUGCAUUUCAUACUGUAUUAAAUAUGGCACUGCUUCUAAGC | 0.235
CUGCUGUGUGAGAGAGGAGCCAAGAGGCAGGUGCUUGCCGACGGCCGCAUCCUCCUUCCCAGGUGUUGGACCAAGACCCGCCCCGCUGCCUGGCACUGCUUGGAGGUGUG | 0.909
GUGAUUGCUUUUAUUACAUUAGUUAAGAUGUCUGAGAGACCAUCUCCUAUCUUUUAUUUCAUUCAUAUCCUCCGCCCUUUUUGUCCUAGAGUGAGAGUUUGGAAGGUGUC | 0.543
AGCCAUUGUUCUCUCUGGACCACAGCCUGGAAGCUACUCUAAUUCCCUUUUUCUACAUAUGUGUAGAUUCAUUCUAUAAGGUCUGUUCUCUAAAGAACCUUAACUAAUGC | 0.392
GCGGCAGGGUGCAGCGAGCUGUUUUCACGAGGCCUCCAGGUGACUGGAUGUAAGCUUGCUUGAGAACUAUGGGUUUUAGCUAUUCUGGUGUCUCCCUGAUUUUCUACAGC | 0.285
